# Assay results gathered from unrelated publications.
# rep main protease: Replicase polyprotein 1ab, main protease (rep, Severe acute respiratory syndrome coronavirus 2, UniProt P0DTD1)
Substance,tested on,assay,system,conditions,measurement,value
CC[C@H](C)[C@H](NC(=O)[C@H](CC(C)C)NC(=O)[C@H](Cc1c[nH]c2ccccc12)NC(=O)[C@H](CCC(N)=O)NC(=O)[C@@H](NC(=O)[C@H](Cc1ccccc1)NC(=O)[C@H](C)NC(=O)[C@H](CCCCNC(=O)COCCOCCNC(=O)COCCOCCNC(=O)CC[C@H](NC(=O)CCCCCCCCCCCCCCCCCCC(=O)O)C(=O)O)NC(=O)[C@H](CCC(N)=O)NC(=O)[C@H](C)NC(=O)[C@@H](NC(=O)[C@H](CCCCN)NC(=O)[C@H](CC(=O)O)NC(=O)[C@H](CC(C)C)NC(=O)C(C)(C)NC(=O)[C@@H](NC(=O)[C@H](CO)NC(=O)[C@H](Cc1ccc(O)cc1)NC(=O)[C@H](CC(=O)O)NC(=O)[C@H](CO)NC(=O)[C@@H](NC(=O)[C@H](Cc1ccccc1)NC(=O)[C@@H](NC(=O)CNC(=O)[C@H](CCC(=O)O)NC(=O)C(C)(C)NC(=O)[C@@H](N)Cc1ccc(O)cc1)[C@@H](C)O)[C@@H](C)O)[C@@H](C)CC)[C@@H](C)CC)C(C)C)C(=O)N[C@@H](C)C(=O)NCC(=O)NCC(=O)N1CCC[C@H]1C(=O)N[C@@H](CO)C(=O)N[C@@H](CO)C(=O)NCC(=O)N[C@@H](C)C(=O)N1CCC[C@H]1C(=O)N1CCC[C@H]1C(=O)N1CCC[C@H]1C(=O)N[C@@H](CO)C(N)=O,,,healthy subjects,"0.5 mg, multiple ascending dose",deaths,0%
O=c1c(O)c(-c2ccc(O)cc2O)oc2cc(O)cc(O)c12,"Spike glycoprotein (Severe acute respiratory syndrome coronavirus 2, UniProt P0DTC2)","binding, BLI",,,Kd,72.7 µM
IQYIDIGNYTVSCLP,human CD4 T cells,AIM,peptide,,responding donors,9%
Nc1ncnc2c([C@@H]3N[C@H](CO)[C@@H](O)[C@H]3O)c[nH]c12,Zaire ebolavirus,antibody staining,"HeLa, Kikwit",0.8 µM,antigen-positive cells,60%
Cn1cnc(Cn2c(=O)[nH]/c(=N\c3cc4cn(C)nc4cc3Cl)n(Cc3cc(F)c(F)cc3F)c2=O)n1,,,"human, moderate renal impairment, plasma","oral, 375 mg single dose",Cmax,20500 ng/mL
CC(C)C[C@H](NC(=O)[C@H](Cc1ccccc1)NC(=O)c1cnccn1)B1O[C@@H]2C[C@@H]3C[C@@H](C3(C)C)[C@]2(C)O1,rep main protease,"viral replication, Gluc reporter",SARS-CoV-2,20 µM,inhibition,-4.14%
IQWMVMFTPLVPFWI,human CD4 T cells,AIM,peptide,,responding donors,8%
O=C(c1cnn2c1CCC2)N1CCCCC[C@@H](Nc2nc(-c3cccnc3)nc3c2CCC3)C1,rep main protease,"enzyme activity, inhibitor",,"5 µM, mean of runs",inhibition,11.9%

# Repeated from above:
Substance,tested on,assay,system,conditions,measurement,value
Cn1cnc(Cn2c(=O)[nH]/c(=N\c3cc4cn(C)nc4cc3Cl)n(Cc3cc(F)c(F)cc3F)c2=O)n1,,,"human, moderate renal impairment, plasma","oral, 375 mg single dose",Cmax,20500 ng/mL
